Experimental data pooled from the literature.
Every numbered part comes from another study and shows a few of its results, in no order.

Sample 1
Target: Ras GTPase-activating protein-binding protein 1, full length (G3BP1, Homo sapiens, UniProt Q13283)
UniProt Q13283, sequence (whole entry, looked up): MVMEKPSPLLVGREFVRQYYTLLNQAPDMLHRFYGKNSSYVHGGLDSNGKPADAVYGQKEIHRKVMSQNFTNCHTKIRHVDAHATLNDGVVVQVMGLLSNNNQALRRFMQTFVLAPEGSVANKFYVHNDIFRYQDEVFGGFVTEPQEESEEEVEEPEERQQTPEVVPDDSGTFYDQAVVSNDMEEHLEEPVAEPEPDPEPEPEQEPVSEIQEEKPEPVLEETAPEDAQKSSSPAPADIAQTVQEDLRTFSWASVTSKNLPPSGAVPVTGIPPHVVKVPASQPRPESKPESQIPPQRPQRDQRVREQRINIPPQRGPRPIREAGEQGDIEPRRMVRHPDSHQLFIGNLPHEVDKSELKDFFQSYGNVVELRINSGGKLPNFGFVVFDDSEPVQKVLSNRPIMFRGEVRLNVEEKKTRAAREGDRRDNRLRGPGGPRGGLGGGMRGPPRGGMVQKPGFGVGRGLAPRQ
Method: RNA Bind-n-Seq
Form: RNA
Sample: in vitro
Concentration: 200 nM
Notes: whole 134-nt RNA, ends assumed
Added: 150 mM KCl
Reference: input library
Reading: higher = stronger binding
Endpoint: log2 enrichment
Sequence = GGGAGUUCUACAGUCCGACGAUCUGGCCCUGGUGGCAUGCGGGGAGGAAGAGGUGGCCUCAUGGAUCGUGGUGGACCCGGUGGAAUGUUCAGAGGUGGCCGUGGUGGAGACAGUGGAAUUCUCGGGUGUCAAGG; value = 0.284
Sequence = GGGAGUUCUACAGUCCGACGAUCAAGUCCUGUGCUACACAUCGUAUGUACCGAAUCGGGGUGGGGUUUGGGGAAAGGGGAAAGUAUUAUGUUACGCCGUUCGGAUCUGCACUUUGGAAUUCUCGGGUGUCAAGG; value = 0.981
Sequence = GGGAGUUCUACAGUCCGACGAUCUGAUGAUAGUAGCAGAGAAGAUGAACAUACACAUACUAACAGUGUCACGAACUCCAGUAGUAUUGUGGACCUGCCCGUUCACCAACUCUCUGGAAUUCUCGGGUGUCAAGG; value = 0.205

Sample 2
Target: Histone acetyltransferase KAT6A, winged helix 1, GST fusion (KAT6A, Homo sapiens, UniProt Q92794, residues 1-85)
Method: protein binding microarray
Form: double-stranded DNA, one strand shown
Sample: in vitro
Concentration: not given
Notes: 8-mer, flanks averaged, mean of 2 arrays, mostly near background
Reference: not given
Reading: higher = stronger binding
Endpoint: E-score
Target sequence (chain): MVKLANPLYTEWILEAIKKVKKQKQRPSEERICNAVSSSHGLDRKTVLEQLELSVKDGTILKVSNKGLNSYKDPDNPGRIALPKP
Sequence = GCAAGACC; value = -0.0238
Sequence = CCTTTAAC; value = 0.0349
Sequence = CTGGAAAG; value = -0.311
Sequence = GATGTGCA; value = -0.153
Sequence = CTGAGCGC; value = 0.316
Sequence = AGATGCAG; value = -0.365
Sequence = AAACCCGG; value = 0.309

Sample 3
Target: Centromere-binding protein 1, full length, His-tagged (CBF1, Saccharomyces cerevisiae, UniProt P17106, residues 1-351)
UniProt P17106, sequence (whole entry, looked up): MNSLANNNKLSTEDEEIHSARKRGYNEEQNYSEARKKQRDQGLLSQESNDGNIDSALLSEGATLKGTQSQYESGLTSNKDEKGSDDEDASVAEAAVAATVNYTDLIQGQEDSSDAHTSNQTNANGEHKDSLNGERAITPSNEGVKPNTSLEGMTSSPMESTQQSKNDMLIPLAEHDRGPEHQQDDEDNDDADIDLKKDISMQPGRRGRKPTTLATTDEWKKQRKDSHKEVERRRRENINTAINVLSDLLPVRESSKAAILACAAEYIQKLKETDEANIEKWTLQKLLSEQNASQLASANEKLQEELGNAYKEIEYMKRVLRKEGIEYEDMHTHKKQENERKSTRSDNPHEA
Method: competition protein-binding microarray
Form: double-stranded DNA, one strand shown
Sample: in vitro
Concentration: 2 µM
Notes: whole 60-bp probe, lowest competitor level
Added: Pho4 competitor, 0.05 µM
Reading: higher = stronger binding
Endpoint: fluorescence intensity
Sequence = GCCGTTGAGTGCTTCGACGTGGCCGTCGAGTCCCCTGTCTTGATTCGCTTGACGCTGCTG; value = 49.9 a.u.
Sequence = AAGGCCTGGTCAACCATCGTGTAGGCGTCAAGCTTAGTCTTGATTCGCTTGACGCTGCTG; value = 51.6 a.u.
Sequence = CATACCCAACCTTGAGAGGTGGGTGAAGATATTTGTGTCTTGATTCGCTTGACGCTGCTG; value = 65 a.u.
Sequence = TTTTTAATGATTTCGCATGTGGATGTGTTCAGTATCGTCTTGATTCGCTTGACGCTGCTG; value = 107 a.u.

Other studies, line by line
Substance = PhoQ, residues 284 288 289 292 302 303 NLGVHL; target = PhoP, residues 12 14 15 18 19 AWHSL (Escherichia coli, UniProt P23836); assay = Sort-seq, item: YFP reporter; test system = E. coli; setting = PhoQ-PhoP variant library, added: 10 µM Mg2+; how to read = reference: high Mg2+ state, higher = stronger signaling; endpoint = fold induction; value = 2.85
